Assay results collected from several papers.
Several values in a cell are separate wells, animals, samples, runs or records. ± marks the error that the study gave.
CCKAR: Cholecystokinin receptor type A (CCKAR, Homo sapiens, UniProt P32238)
lasR: Transcriptional activator protein LasR (lasR, Pseudomonas aeruginosa, UniProt P25084)
Uncharacterized hydrolase SAUSA300_2518: Uncharacterized hydrolase SAUSA300_2518 (Staphylococcus aureus, UniProt Q2FDS6)

For `COc1ccc(F)cc1S(=O)(=O)Nc1cnc2c(c1)C(=O)NCCO2`, the inhibition was -7% (GABAA receptor chloride channel; radioligand binding; 10 µM).
`CC(=O)NC[C@@H]1[C@@H](O)C[C@H]2[C@H](O)C[C@@H](CO)N12` gave an inhibition of 70.6% and 73.6% (β-N-acetylglucosaminidase; enzyme activity, inhibitor, colorimetric; Canavalia ensiformis; 34.2 nM, added: p-nitrophenyl GlcNAc substrate).
`CS(C)(=O)=Nc1ccc(-c2ccc(-c3nc4cc(O[C@@H]5CO[C@H]6[C@@H]5OC[C@H]6O)[nH]c4cc3F)cc2)cc1` has an inhibition of -3% (Ribosomal protein S6 kinase alpha-2 (RPS6KA2, Homo sapiens, UniProt Q15349); enzyme activity, inhibitor; 10 µM).
`C[C@H](NCc1ccc(-c2ccc(C(F)(F)F)cc2)cc1)C(N)=O` gave an inhibition of 8% (Aurora kinase B (AURKB, Homo sapiens, UniProt Q96GD4); cell-free assay, competition with immobilised ligand; 1 µM).
For `N[C@H](C(=O)N1CCCC1)C1CCN(c2nccc3c(-c4ncc(Cl)cc4Cl)cccc23)CC1`, the inhibition was 101% (Protein-arginine deiminase type-4 (PADI4, Homo sapiens, UniProt Q9UM07); enzyme activity, inhibitor; 3.84 µM, added: Ca2+ 0.25 mM).
With `CN(/N=C/c1ccccc1C(=O)O)c1nc(-c2ccccc2Cl)cs1` the inhibition was 10.3% (Death-associated protein kinase 1 (DAPK1, Homo sapiens, UniProt P53355); kinase activity; 1 µM).
`C=CC(=O)Nc1cc(-c2nn(C3CCC(N4CCN(C(C)=O)CC4)CC3)c3ncnc(N)c23)ccc1Oc1ccccc1` (centres unmarked) has an inhibition of 8.2% (Serine/threonine-protein kinase 3 (STK3, Homo sapiens, UniProt Q13188); inhibitor, KiNativ profiling; biochemical; 2 µM).
`C/C(=N\OCCCN1CCCCC1)c1ccc(C(F)(F)F)cc1` gave an inhibition of -3.78% (CCKAR; antagonist, IP-One; 10 µM).
The inhibition of `CCCCCCCCCNC(=O)CC(=O)c1ccccc1` is reported as 83% (lasR; reporter gene, antagonist; Pseudomonas aeruginosa PAO-JP2; 100 µM, plasI-LVAgfp reporter, added: OdDHL 150 nM).
With `CCOC(=O)C1CCN(C(=O)n2cc[n+](C)c2)CC1` the inhibition was 22.2% (Uncharacterized hydrolase SAUSA300_2518; enzyme activity, inhibitor; 50 µM).
With `CCCC[C@@H](C=O)NC(=O)[C@H](CC(C)C)NC(=O)[C@H](CC(C)C)NC(C)=O` the inhibition was 18.6 ± 20.6% (Ribosomal processing cysteine protease Prp (prp, Staphylococcus aureus, UniProt Q2FXS9, N63Q); enzyme activity, inhibitor; 10 µM, prp 21.4 nM, added: FITC peptide substrate 0.5 µM).
The inhibition of `O=C(O)c1ccc(-c2nc(-c3ccccc3Cl)c3sccn23)cc1` is reported as 47% (CCKAR; binding; 10 µM).
`CCCCCCCCCCCCn1nnc(CC(=O)O)n1` has an inhibition of 53% (lasR; reporter gene, antagonist; Pseudomonas aeruginosa PAO-JP2; 100 µM, plasI-LVAgfp reporter, added: OdDHL 150 nM).
`CC1(C)OB(c2cnc3c(c2)CC(=O)N3)OC1(C)C` gave an inhibition of 53.2% (Uncharacterized hydrolase SAUSA300_2518; enzyme activity, inhibitor; 50 µM).
`O=C(O)c1ccccc1/C=N/Nc1nc(-c2ccccc2Cl)cs1` gave an inhibition of -3.82% (Serine/threonine-protein kinase Nek2 (NEK2, Homo sapiens, UniProt P51955); enzyme activity, inhibitor; 1 µM).
`CC(C)[C@H]1NC(=O)C[C@H]2/C=C/CCSSC[C@@H](NC1=O)C(=O)N[C@H](Cc1cccc3ccccc13)C(=O)NCC(=O)O2` has an inhibition of -1.7% (SRSF protein kinase 3 (SRPK3, Homo sapiens, UniProt Q9UPE1); enzyme activity, inhibitor; 10 µM).
The inhibition of `CN(C)[C@H]1C[C@@]23CC[C@@]4(O2)C(=CC[C@]2(C)[C@@H](c5ccc6ccncc6c5)CC[C@H]24)C=C3[C@@H](O)[C@@H]1O` is reported as -2.6% (Ephrin type-B receptor 2 (EPHB2, Homo sapiens, UniProt P29323); ATP probe labelling, inhibitor, KiNativ profiling; 0.1 µM).
For `CN[C@@H]1[C@H](O)[C@H](NC)[C@H]2O[C@]3(O)[C@H](O[C@@H]2[C@H]1O)O[C@H](C)C[C@H]3NC(=O)Cc1ccc(Cl)cn1`, the inhibition was 10% (Androgen receptor (Ar, Rattus norvegicus, UniProt P15207); ligand displacement, radioligand; 10 µM).
For `O=C(CC(=O)N[C@H]1CCOC1=O)Cc1ccccc1`, the inhibition was 39% (lasR; reporter gene, antagonist; Pseudomonas aeruginosa PAO-JP2; 100 µM, plasI-LVAgfp reporter, added: OdDHL 150 nM).
`N#Cc1ccc(N2N=C3c4ccc(C(=O)O)cc4CCC3C2C2CCCC2)cc1Cl` (centres unmarked) gave an inhibition of 8% (Histone-lysine N-methyltransferase 2B, complex (KMT2B, Homo sapiens, UniProt Q9UMN6); enzyme activity; 10 µM).
`O=C(CCCOc1ccc(Cl)cc1)N[C@H]1CCOC1=O` gave an inhibition of 60% (lasR; reporter gene, antagonist; Pseudomonas aeruginosa PAO-JP2; 100 µM, plasI-LVAgfp reporter, added: OdDHL 150 nM).
`COc1c(/C=C/C(=O)c2ccc(O)cc2)ccc(O)c1O` has an inhibition of 50.4% (3',5'-cyclic-AMP phosphodiesterase 4D (PDE4D, Homo sapiens, UniProt Q08499); enzyme activity, inhibitor, radiometric; 5 µM).
For `O=C(CN1CN(c2ccccc2)C2(CCN(C(=O)c3cnc4[nH]ncc4c3)CC2)C1=O)NCC(F)(F)F`, the inhibition was under 50% (Serine/threonine-protein kinase 4 (STK4, Homo sapiens, UniProt Q13043); inhibitor; concentration not given).

Repeated from above:
With `CN(/N=C/c1ccccc1C(=O)O)c1nc(-c2ccccc2Cl)cs1` the inhibition was 10.3% (Death-associated protein kinase 1 (DAPK1, Homo sapiens, UniProt P53355); kinase activity; 1 µM).
For `CN[C@@H]1[C@H](O)[C@H](NC)[C@H]2O[C@]3(O)[C@H](O[C@@H]2[C@H]1O)O[C@H](C)C[C@H]3NC(=O)Cc1ccc(Cl)cn1`, the inhibition was 10% (Androgen receptor (Ar, Rattus norvegicus, UniProt P15207); ligand displacement, radioligand; 10 µM).
